Results gathered from unrelated publications.
Compare with care: the assays were run in different laboratories. ± marks the error that the study gave.
Cell line: MCF7

SMILES	test	test system	conditions	IC50
O=S(=O)(Sc1cccc(F)c1)c1cccc(F)c1	cell growth, sulforhodamine B	–	–	> 10 µM
CN(C)C/C=C/C(=O)Nc1cc2c(Nc3ccc(F)c(Cl)c3)ncnc2cc1O[C@H]1CCOC1	cell growth or viability, MTT	–	48 h	5.1 µM
CC(C)=CCC/C(C)=C/CC/C(C)=C/CC/C=C(\C)CC/C=C(\C)CCC=C(C)C	cell growth or viability, resazurin	–	96 h	27.7 µg/mL
COc1cc(-c2cc(-c3ccc(Cl)cc3)n(CN3CCOCC3)c(=O)c2C#N)ccc1O	cell growth or viability, MTT	–	–	≥ 50 µM
NCCCCCCCNc1n[n+]([O-])c2ccccc2[n+]1[O-]	cytotoxicity, MTT	–	24 h, normoxia	> 90 µM
N#Cc1c(-c2ccc(Cl)cc2)c2c(=O)[nH]c(-c3ccco3)nc2n(C2CCCCC2)c1=O	cell growth or viability, MTT	–	–	11.2 µM
COc1ccc(C=NNC(=O)C(C#N)=C2Sc3nc4ccc(S(=O)(=O)N5CCCC5)cc4nc3S2)cc1	cell growth	–	24 h	11.3 ± 0.9 µM
CC(C)c1cnn2c(NCc3ccccc3)cc(NCCCCCCN)nc12	RNA Pol II CTD Ser5 phosphorylation, immunoblot densitometry	–	4 h	9 µM
O=C1CCCCC1=C1Sc2nc3ccc(S(=O)(=O)N4CCCC4)cc3nc2S1	cell growth	–	24 h	≤ 8.78 µM
CC(=O)O[C@H]1C(=O)O[C@@H]2C[C@H]3C(C)=CC(=O)[C@@H](O)[C@]3(C)[C@H]3[C@]4(O)OC[C@]32[C@@H]1[C@@H](C)[C@H]4O	cell growth or viability	–	24 h	11 µM
N#CCC(=O)Nc1nnc(NC(=O)c2ccccc2)s1	cell growth or viability, MTT	–	48 h	23.8 µM
Cc1nc2ccccc2n(CC(=O)Nc2ccc(C(=O)Nc3ccc(O)cc3)cc2)c1=O	cell growth or viability, MTT	–	–	17.9 µM
N#CC(C(=O)Nc1nnc(NC(=O)c2ccccc2)s1)=C1Oc2cccnc2O1	cell growth or viability, MTT	–	48 h	36.8 µM
CC(=O)/C=C(O)/C=C/c1ccc(O)c(O)c1	cell growth or viability, MTT	–	72 h	< 10 µM
C=CCc1ccc(O)c(-c2ccc(O)c(CC=C)c2)c1	cell proliferation, MTS	–	72 h, added: temozolomide 250 µM	10 µM
C#CCN1c2cccnc2Sc2cccnc21	cell growth or viability, WST-1	–	72 h	< 5 µg/mL
Nc1nnc(NC(=O)c2ccccc2)s1	cell growth or viability, MTT	–	48 h	12.4 µM
NCCCCCCCCNc1n[n+]([O-])c2ccccc2[n+]1[O-]	cytotoxicity, MTT	10% FBS medium	6 h + 18 h, hypoxia 3% O2	74.3 ± 21.1 µM
CC1=NN(c2ccccc2)C(=O)C1=C1Sc2nc3ccc(S(=O)(=O)N4CCCC4)cc3nc2S1	cell growth	–	24 h	85.7 ± 4.3 µM
Cc1nc2ccccc2nc1SCC(=O)Nc1ccc(C(=O)NNC(=O)c2ccccc2O)cc1	cell growth or viability, MTT	–	–	35.8 µM
O=S(=O)(Sc1ccccc1F)c1ccccc1F	cell growth, sulforhodamine B	–	–	> 10 µM
N#CC(C(=O)Nc1nnc(NC(=O)c2ccccc2)s1)C(=S)Nc1ccccc1 (stereo not shown)	cell growth or viability, MTT	–	48 h	19.6 µM
Fc1ccccc1SSc1ccccc1F	cell growth or viability, SRB	–	–	> 10 µM
Cc1ccc(NC(=O)NNC(=O)CSc2nc3ccccc3c(=O)n2-c2ccc(Cl)cc2)cc1	cell growth or viability, MTT	–	–	59.5 µM
O=C(N/C(=C/c1ccc(Cl)cc1)c1nc2ccccc2c(=O)o1)c1ccccc1	cell growth or viability, MTT	–	48 h	20.4 µM

SMILES	test	test system	conditions	IC50
[O-][n+]1nc(NCCCCCCCCNc2n[n+]([O-])c3ccccc3[n+]2[O-])nc2ccccc21	cytotoxicity, MTT	–	24 h, normoxia	> 30 µM
CC(=O)c1nn(-c2ccccc2Cl)/c(=N/N=C(\C)c2ccc(NC(=O)c3cccnc3)cc2)s1	cytotoxicity, MTT	–	24 h	7.09 ± 0.5 µM
COc1ccc(/C=C\c2cc(OC)c(OC)c(OC)c2)cc1O	cell growth, sulforhodamine B	–	–	0.021 ± 0.004 µM
[O-][n+]1nc(NCCCNc2n[n+]([O-])c3ccccc3[n+]2[O-])nc2ccccc21	cytotoxicity, MTT	–	24 h, normoxia	68.3 µM
O=C(c1ccc2ccccc2c1)c1cn(-c2ccccc2)nc1C1=Nn2c(nnc2SCc2ccccc2CSc2nnc3n2N=C(c2nn(-c4ccccc4)cc2C(=O)c2ccc4ccccc4c2)CS3)SC1	cell growth or viability, MTT	–	48 h	38.2 µM
N=c1oc2ccccc2cc1C(=O)Nc1nnc(NC(=O)c2ccccc2)s1	cell growth or viability, MTT	–	48 h	8.25 µM
C=C(C)[C@@H]1CC[C@]2(C(=O)OCCOCCOCC[P+](c3ccccc3)(c3ccccc3)c3ccccc3)CC[C@]3(C)[C@H](CC[C@@H]4[C@@]5(C)CC[C@H](O)C(C)(C)[C@@H]5CC[C@]43C)[C@@H]12	cell growth or viability, MTT	–	–	0.7 to 0.74 µM
COc1cc(-c2cc(-c3ccc(Cl)cc3)[nH]c(=O)c2C#N)ccc1O	cell growth or viability, MTT	–	–	6.17 µM
N#Cc1c(-c2ccc(Cl)cc2)c(C(N)=O)c(N)n(C2CCCCC2)c1=O	cell growth or viability, MTT	–	–	16.9 µM
CCCCCCNC(=O)n1cc(F)c(=O)[nH]c1=O	cell growth or viability, MTT	–	72 h	230 µM
CCC(O)CC(=O)O[C@@H]1C[C@@H]2[C@@]3(C)CCC[C@](C)(CC)[C@@H]3CC[C@@]2(C)[C@@H]2C[C@@H](O)C3=C(C(=O)O[C@H]3C)[C@@]12C (stereo partly shown)	cell growth or viability, CCK-8	–	24 h	≤ 25 µM
[O-][n+]1nc(NCCCCCCCNc2n[n+]([O-])c3ccccc3[n+]2[O-])nc2ccccc21	cytotoxicity, MTT	10% FBS medium	6 h + 18 h, hypoxia 3% O2	> 30 µM
O=C(CSc1nc2ccccc2c(=O)n1-c1ccc(Cl)cc1)NNC(=O)Nc1ccc(C(F)(F)F)cc1Cl	cell growth or viability, MTT	–	–	26.3 µM
[O-][n+]1nc(NCCCCCNc2n[n+]([O-])c3ccccc3[n+]2[O-])nc2ccccc21	cytotoxicity, MTT	–	24 h, normoxia	> 30 µM
CC/C(=C(\c1ccccc1)c1ccc(OCCN(C)C(=O)CCCCOc2ccc3[nH]cc(CCNC(C)=O)c3c2)cc1)c1ccccc1	cell survival, MTT	–	day 9, dosed days 2, 4, 7	13 µM
Cc1cccc(C)c1NC(=O)NNC(=O)CSc1nc2ccccc2c(=O)n1-c1ccc(Cl)cc1	cell growth or viability, MTT	–	–	21.4 µM
C=CCc1ccc(OCc2nn(CN3CCCCC3)c(=S)o2)c(OC)c1	cell growth or viability, MTT	–	72 h	33.2 µM
N#CC(=Cc1cccs1)C(=O)Nc1nnc(NC(=O)c2ccccc2)s1	cell growth or viability, MTT	–	48 h	8.02 µM
Cc1ccc(-n2c(SCC(=O)NNC(=O)Nc3ccccc3)nc3ccccc3c2=O)cc1	cell growth or viability, MTT	–	–	5.86 µM
O=C(c1ccc2ccccc2c1)c1cn(-c2ccccc2)nc1C(=O)CBr	cell growth or viability, MTT	–	48 h	13.2 µM
Cc1ccc(-n2c(SCC(=O)NNC(=O)Nc3ccc(C(F)(F)F)cc3Cl)nc3ccccc3c2=O)cc1	cell growth or viability, MTT	–	–	38.4 µM
O=S(=O)(Sc1ccc(Cl)cc1)c1ccc(Cl)cc1	cell growth, sulforhodamine B	–	–	10 µM
[O-][n+]1nc(NCCNc2n[n+]([O-])c3ccccc3[n+]2[O-])nc2ccccc21	cytotoxicity, MTT	10% FBS medium	6 h + 18 h, hypoxia 3% O2	11.7 ± 0.9 µM
O=C(CSc1nc2ccccc2c(=O)n1-c1ccc(Cl)cc1)NNC(=O)Nc1ccc(F)cc1	cell growth or viability, MTT	–	–	32.6 µM

Some of these lines once more:
SMILES	test	test system	conditions	IC50
CN(C)C/C=C/C(=O)Nc1cc2c(Nc3ccc(F)c(Cl)c3)ncnc2cc1O[C@H]1CCOC1	cell growth or viability, MTT	–	48 h	5.1 µM
CC(=O)c1nn(-c2ccccc2Cl)/c(=N/N=C(\C)c2ccc(NC(=O)c3cccnc3)cc2)s1	cytotoxicity, MTT	–	24 h	7.09 ± 0.5 µM
[O-][n+]1nc(NCCNc2n[n+]([O-])c3ccccc3[n+]2[O-])nc2ccccc21	cytotoxicity, MTT	10% FBS medium	6 h + 18 h, hypoxia 3% O2	11.7 ± 0.9 µM
[O-][n+]1nc(NCCCCCCCNc2n[n+]([O-])c3ccccc3[n+]2[O-])nc2ccccc21	cytotoxicity, MTT	10% FBS medium	6 h + 18 h, hypoxia 3% O2	> 30 µM
